Published values pooled from the literature.
Parts stem from different laboratories: compare values within a part only. Several values in a cell are separate wells, animals, samples, runs or records. Substitutions count along the parent as printed.

Set 1
Target: Sal-like protein 4, full length isoform A (SALL4, Homo sapiens, UniProt Q9UJQ4, residues 1-1053)
UniProt Q9UJQ4, sequence (whole entry, looked up): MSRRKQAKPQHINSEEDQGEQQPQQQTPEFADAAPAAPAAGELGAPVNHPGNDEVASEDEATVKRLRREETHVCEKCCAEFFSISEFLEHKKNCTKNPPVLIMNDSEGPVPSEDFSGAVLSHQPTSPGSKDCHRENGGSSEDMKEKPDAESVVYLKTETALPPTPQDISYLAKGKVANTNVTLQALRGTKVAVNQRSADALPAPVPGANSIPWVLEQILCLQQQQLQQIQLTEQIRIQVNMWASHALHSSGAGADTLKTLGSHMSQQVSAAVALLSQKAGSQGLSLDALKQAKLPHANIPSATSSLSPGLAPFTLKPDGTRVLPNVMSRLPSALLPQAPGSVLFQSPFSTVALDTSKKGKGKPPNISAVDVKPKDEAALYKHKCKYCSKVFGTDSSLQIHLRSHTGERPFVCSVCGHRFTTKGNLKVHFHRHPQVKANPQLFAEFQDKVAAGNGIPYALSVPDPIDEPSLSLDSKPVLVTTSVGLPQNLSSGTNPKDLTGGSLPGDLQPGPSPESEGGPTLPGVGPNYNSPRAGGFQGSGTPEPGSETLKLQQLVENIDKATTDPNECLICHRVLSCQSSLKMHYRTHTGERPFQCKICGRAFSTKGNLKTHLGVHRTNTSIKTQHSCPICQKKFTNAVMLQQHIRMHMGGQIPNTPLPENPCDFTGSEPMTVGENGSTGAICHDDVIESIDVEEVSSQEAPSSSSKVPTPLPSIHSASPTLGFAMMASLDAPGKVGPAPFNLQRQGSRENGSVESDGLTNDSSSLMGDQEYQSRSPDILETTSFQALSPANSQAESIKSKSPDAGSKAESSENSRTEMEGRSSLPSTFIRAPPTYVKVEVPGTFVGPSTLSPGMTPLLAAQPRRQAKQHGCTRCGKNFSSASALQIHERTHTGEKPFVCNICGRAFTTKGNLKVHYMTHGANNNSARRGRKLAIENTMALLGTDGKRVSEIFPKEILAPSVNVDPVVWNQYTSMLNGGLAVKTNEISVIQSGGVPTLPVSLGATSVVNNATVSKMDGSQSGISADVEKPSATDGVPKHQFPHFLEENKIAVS
Method: universal PBM
Form: double-stranded DNA, one strand shown
Sample: in vitro
Tested at: 600 nM
Notes: 8-mer, flanks averaged, mean of replicates
Reading: higher = stronger binding
Strand	E-score
AACGGGCT	-0.257
AGAGCGCA	-0.248
CCCCCTAG	-0.256
AGGGATGA	-0.0537
TGAGTAAA	0.0532
ACTAGCAT	-0.00787
CACAGACA	0.151
AAATACCT	0.176
AAGGCCTG	-0.241
CGACCAGA	-0.16
CTCAAGGA	0.0314

Set 2
Target: RNA binding protein fox-1 homolog 2, RRM domain, GST-SBP tag (RBFOX2, Homo sapiens, UniProt O43251-10, residues 100-194)
Method: RNA Bind-n-Seq
Form: RNA
Sample: in vitro
Tested at: 365 nM
Notes: natural RNA segment, single round, ends assumed
Reference: no-protein control
Reading: higher = stronger binding
Construct (chain): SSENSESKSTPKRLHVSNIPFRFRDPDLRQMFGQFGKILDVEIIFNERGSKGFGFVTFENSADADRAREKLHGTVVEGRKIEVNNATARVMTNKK
Strand	RBNS enrichment (R)
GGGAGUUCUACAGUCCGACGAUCCUGGUGGCUAGUGCCUUCAUAUUAGAGCACCUUCUCUGAGGCUGAUUGGUGGGCAGGUAGGGAAGACAUUGAGCAGACAGUGUCCGCUCAGUUGUCCUUCCCUCCCUUCCUGGAAUUCUCGGGUGCCAA	0.158
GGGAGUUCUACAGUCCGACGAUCACCUUCUUUGGGCCUCGGCCUCCUAAUCUGGGUAAUGGGGAGGACUUCAUUGGCAUUGUUAGUCCCACAGGCCAAGGAUAAGGUUGAAAUGAGACGGCUUGUGUGUGAAAUGGAAUUCUCGGGUGCCAA	0.789
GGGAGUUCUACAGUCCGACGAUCUGACCGCAACAUCCCGUGUGGGCGGCCGGCCGCUCCUGCAGCCCGACUCUCCUGCCAGUGUCUUUCAGGAUGUCAACGGGUGGUACGAUUCUGGCAUUUGUUUCUCGCUCUGGAAUUCUCGGGUGCCAA	0.285
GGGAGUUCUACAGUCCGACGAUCUAUAUAUGUAGAAAUGAAUAAAUAUAUAUUUAAGUACAGUUUUCAUGAGGAAGUUUUAAAAGACCAUGUUCCUAAGCUUCCAAGAAGGUUUUGGAUACUAGAAGUAUUAAUGGAAUUCUCGGGUGCCAA	0.957
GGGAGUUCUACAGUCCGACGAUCUUUUGCCACAGACUUUGAAGAAACUUUUGGAUGUGGGGCAUCAUCCGCAUCUUUCUCUCUCCUCCAAAUGACAAAGUUUGGGGAAUUUUUGAAUUUUCCUAGCAUCGCCCUGGAAUUCUCGGGUGCCAA	1.83
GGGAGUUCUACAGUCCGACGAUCAGCUUGCUGUCAUUUCUGAACCCAGGAUCUGUCAUCAAAUGAAACAUGUUUAAAAAGUGACUCUGAAGGUGAAAAGAGUUUCAAGCAUUCCAAAUGAAUUCUCAGCGUUUUGGAAUUCUCGGGUGCCAA	0.638
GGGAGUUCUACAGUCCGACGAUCAAGAGGCCAGAUCCUGGCAUUUUGCACACAUUUUGGUGUAUAUACAGUGUAUCACUCAGUAAGAAUGAUAUGACUUGGCAACUGCAUAGCCACUGGCCAAGACUUGCUGAUGGAAUUCUCGGGUGCCAA	0.405
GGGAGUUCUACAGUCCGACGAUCUAAAGAGCAGCUAGGGAAGGAGAGAAACAGUGUCCUGGGUGAGACUUGGUAGAUACUGCUCCAAUAUCCUGUUGCUAGCCCCCACCUCCUUCUGGAACAGUGUGAGACAAUGGAAUUCUCGGGUGCCAA	0.27

Set 3
Target: CCND2, cyclin fold, Cln2 fusion (human)
Method: yeast growth competition, sequencing
Sample: yeast
Notes: weak parent motif
Reference: not given
Reading: higher = stronger binding
Starting sequence: SLBP docking peptide (human); ARYKRKLLINDFG
Substitution	normalised enrichment score
R5K L8F	-0.123
F12M	-0.0112
I9D	-0.111
K6Q	0.676
N10S	0.461
L8S	0.0966
K4Y	-0.226
L8I	0.228
F12D	0.449
I9W	-0.278
F12Y	0.407

Other studies, line by line
Substance	target	assay	test system	conditions	how to read	endpoint	value
PhoQ, residues 284 288 289 292 302 303 TNSAEL	PhoP, residues 12 14 15 18 19 LWHSL (Escherichia coli, UniProt P23836)	Sort-seq, measured: YFP reporter	E. coli	PhoQ-PhoP variant library, together with: 10 µM Mg2+	reference: high Mg2+ state, higher = stronger signaling	fold induction	15.1 and 22.9

Excerpt of the above (set 2):
Strand	RBNS enrichment (R)
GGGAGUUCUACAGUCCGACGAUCACCUUCUUUGGGCCUCGGCCUCCUAAUCUGGGUAAUGGGGAGGACUUCAUUGGCAUUGUUAGUCCCACAGGCCAAGGAUAAGGUUGAAAUGAGACGGCUUGUGUGUGAAAUGGAAUUCUCGGGUGCCAA	0.789
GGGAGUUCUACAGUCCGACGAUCUGACCGCAACAUCCCGUGUGGGCGGCCGGCCGCUCCUGCAGCCCGACUCUCCUGCCAGUGUCUUUCAGGAUGUCAACGGGUGGUACGAUUCUGGCAUUUGUUUCUCGCUCUGGAAUUCUCGGGUGCCAA	0.285
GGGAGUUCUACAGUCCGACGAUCUAUAUAUGUAGAAAUGAAUAAAUAUAUAUUUAAGUACAGUUUUCAUGAGGAAGUUUUAAAAGACCAUGUUCCUAAGCUUCCAAGAAGGUUUUGGAUACUAGAAGUAUUAAUGGAAUUCUCGGGUGCCAA	0.957
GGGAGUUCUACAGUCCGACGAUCUUUUGCCACAGACUUUGAAGAAACUUUUGGAUGUGGGGCAUCAUCCGCAUCUUUCUCUCUCCUCCAAAUGACAAAGUUUGGGGAAUUUUUGAAUUUUCCUAGCAUCGCCCUGGAAUUCUCGGGUGCCAA	1.83
